# Published values from different studies.
# Every numbered part comes from another study and shows a few of its results, in no order.
# Sequence of UniProt Q13554 (whole entry, looked up): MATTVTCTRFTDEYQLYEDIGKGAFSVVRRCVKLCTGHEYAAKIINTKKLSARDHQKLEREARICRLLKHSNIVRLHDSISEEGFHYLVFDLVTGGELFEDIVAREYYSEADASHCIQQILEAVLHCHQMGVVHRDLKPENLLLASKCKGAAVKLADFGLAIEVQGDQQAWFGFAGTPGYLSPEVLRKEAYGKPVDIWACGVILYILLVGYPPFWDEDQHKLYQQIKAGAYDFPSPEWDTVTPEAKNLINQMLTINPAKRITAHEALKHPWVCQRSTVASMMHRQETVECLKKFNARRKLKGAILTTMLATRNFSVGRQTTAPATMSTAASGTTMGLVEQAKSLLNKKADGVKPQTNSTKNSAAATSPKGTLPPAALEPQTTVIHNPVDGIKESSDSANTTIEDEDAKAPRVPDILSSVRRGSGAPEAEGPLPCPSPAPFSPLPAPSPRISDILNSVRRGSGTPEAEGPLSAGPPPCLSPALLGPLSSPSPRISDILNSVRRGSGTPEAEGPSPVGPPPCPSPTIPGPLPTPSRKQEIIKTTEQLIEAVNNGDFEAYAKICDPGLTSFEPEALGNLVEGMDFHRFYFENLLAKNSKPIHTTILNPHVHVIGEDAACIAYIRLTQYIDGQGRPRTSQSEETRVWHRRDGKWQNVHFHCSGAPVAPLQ
# Sequence of UniProt P09619 (whole entry, looked up): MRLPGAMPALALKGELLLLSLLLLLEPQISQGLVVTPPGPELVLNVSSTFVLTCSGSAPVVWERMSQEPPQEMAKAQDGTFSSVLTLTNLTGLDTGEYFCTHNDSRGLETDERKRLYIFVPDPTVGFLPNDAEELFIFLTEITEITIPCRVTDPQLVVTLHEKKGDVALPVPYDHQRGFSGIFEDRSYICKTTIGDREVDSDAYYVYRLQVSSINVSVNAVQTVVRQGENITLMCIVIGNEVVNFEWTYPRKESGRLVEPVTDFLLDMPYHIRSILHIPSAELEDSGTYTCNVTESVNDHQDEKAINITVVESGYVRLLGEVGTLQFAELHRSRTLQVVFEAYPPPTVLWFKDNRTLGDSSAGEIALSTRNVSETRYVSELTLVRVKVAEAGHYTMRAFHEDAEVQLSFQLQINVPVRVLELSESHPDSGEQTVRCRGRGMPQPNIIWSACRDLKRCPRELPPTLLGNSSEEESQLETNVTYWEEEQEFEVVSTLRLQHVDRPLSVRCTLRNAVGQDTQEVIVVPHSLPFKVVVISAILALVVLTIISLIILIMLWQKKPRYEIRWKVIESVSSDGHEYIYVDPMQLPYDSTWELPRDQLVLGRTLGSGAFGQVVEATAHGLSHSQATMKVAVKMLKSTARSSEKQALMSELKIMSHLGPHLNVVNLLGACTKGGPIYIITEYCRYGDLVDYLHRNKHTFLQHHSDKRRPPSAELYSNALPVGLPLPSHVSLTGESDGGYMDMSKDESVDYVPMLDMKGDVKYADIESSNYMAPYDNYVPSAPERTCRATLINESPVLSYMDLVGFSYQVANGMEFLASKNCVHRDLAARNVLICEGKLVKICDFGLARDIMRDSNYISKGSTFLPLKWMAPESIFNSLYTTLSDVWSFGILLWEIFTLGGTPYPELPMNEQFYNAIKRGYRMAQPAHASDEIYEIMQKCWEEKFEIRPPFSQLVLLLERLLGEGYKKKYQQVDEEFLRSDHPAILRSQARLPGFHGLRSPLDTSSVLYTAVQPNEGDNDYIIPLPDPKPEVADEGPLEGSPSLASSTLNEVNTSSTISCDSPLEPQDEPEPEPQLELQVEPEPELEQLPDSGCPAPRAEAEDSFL
# Sequence of UniProt Q13555 (whole entry, looked up): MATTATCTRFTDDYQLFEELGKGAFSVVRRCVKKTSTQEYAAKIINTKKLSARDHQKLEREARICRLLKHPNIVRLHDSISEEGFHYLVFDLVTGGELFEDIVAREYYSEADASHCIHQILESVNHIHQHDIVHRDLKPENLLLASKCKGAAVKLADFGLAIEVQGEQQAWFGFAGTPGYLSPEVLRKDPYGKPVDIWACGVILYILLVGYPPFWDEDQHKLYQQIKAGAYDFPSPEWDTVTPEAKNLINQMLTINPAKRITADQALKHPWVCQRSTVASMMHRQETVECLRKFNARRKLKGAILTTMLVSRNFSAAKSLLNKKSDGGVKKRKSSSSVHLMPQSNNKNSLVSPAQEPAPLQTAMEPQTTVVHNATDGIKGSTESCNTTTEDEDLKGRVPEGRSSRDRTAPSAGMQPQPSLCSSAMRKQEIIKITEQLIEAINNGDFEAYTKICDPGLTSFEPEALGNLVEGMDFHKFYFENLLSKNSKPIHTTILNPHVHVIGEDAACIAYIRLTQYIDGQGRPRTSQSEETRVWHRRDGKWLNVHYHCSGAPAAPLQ
# Sequence of UniProt Q15831 (whole entry, looked up): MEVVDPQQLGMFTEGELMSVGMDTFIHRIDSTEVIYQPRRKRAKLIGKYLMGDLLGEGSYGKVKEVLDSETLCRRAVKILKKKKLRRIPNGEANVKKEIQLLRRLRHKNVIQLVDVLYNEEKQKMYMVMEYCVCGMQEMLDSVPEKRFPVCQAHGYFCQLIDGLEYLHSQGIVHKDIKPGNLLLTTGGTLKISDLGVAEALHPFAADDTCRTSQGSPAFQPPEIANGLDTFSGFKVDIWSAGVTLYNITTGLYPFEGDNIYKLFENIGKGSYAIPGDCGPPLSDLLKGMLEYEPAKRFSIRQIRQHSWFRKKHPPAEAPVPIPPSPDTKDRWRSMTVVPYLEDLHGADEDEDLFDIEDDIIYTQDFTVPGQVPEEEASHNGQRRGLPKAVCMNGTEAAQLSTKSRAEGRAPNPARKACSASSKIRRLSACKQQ
# Sequence of UniProt P35968 (whole entry, looked up): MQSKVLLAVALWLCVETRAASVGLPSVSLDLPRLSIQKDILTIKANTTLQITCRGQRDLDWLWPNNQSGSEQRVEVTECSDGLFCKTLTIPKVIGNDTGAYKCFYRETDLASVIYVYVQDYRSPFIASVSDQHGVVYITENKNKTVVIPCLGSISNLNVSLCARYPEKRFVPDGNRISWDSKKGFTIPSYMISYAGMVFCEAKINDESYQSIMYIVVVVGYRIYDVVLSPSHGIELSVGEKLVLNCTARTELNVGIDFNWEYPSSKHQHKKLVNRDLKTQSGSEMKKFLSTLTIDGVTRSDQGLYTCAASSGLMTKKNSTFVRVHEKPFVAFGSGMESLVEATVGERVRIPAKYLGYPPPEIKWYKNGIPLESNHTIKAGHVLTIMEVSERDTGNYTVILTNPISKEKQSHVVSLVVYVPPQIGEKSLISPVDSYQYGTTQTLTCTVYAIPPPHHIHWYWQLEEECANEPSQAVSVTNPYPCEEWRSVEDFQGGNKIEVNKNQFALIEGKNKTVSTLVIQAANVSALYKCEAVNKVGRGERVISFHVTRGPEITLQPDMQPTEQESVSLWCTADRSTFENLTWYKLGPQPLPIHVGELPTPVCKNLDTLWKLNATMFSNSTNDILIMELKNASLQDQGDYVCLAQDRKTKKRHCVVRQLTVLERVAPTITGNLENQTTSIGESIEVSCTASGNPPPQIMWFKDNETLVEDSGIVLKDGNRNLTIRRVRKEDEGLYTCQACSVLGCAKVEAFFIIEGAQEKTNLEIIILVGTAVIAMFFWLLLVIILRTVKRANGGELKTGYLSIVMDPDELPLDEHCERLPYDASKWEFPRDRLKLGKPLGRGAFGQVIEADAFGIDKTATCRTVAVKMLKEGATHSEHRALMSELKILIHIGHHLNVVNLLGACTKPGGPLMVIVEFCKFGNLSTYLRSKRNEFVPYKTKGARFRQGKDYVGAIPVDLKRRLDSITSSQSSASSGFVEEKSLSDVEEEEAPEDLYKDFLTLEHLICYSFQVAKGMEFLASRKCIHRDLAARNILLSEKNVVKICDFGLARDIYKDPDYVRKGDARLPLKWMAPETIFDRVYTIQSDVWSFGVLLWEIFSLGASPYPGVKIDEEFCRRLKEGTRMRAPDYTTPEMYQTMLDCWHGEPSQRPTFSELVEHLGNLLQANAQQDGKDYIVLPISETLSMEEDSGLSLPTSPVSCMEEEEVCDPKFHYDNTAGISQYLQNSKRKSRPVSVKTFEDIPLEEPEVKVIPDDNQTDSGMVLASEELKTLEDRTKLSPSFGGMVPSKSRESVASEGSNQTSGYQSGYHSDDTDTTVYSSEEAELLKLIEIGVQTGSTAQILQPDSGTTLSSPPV
# Sequence of UniProt Q8IY84 (whole entry, looked up): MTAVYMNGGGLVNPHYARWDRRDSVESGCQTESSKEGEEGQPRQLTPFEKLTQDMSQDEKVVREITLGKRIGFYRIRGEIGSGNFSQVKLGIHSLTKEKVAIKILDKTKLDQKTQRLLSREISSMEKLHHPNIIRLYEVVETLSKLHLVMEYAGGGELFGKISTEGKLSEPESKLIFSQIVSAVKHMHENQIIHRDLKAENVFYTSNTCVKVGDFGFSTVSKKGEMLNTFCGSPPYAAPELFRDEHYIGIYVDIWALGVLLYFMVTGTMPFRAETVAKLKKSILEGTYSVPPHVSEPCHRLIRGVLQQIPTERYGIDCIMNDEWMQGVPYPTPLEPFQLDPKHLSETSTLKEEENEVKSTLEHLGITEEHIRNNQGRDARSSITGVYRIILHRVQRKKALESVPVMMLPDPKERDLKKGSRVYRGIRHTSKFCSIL
# Sequence of UniProt Q99640 (whole entry, looked up): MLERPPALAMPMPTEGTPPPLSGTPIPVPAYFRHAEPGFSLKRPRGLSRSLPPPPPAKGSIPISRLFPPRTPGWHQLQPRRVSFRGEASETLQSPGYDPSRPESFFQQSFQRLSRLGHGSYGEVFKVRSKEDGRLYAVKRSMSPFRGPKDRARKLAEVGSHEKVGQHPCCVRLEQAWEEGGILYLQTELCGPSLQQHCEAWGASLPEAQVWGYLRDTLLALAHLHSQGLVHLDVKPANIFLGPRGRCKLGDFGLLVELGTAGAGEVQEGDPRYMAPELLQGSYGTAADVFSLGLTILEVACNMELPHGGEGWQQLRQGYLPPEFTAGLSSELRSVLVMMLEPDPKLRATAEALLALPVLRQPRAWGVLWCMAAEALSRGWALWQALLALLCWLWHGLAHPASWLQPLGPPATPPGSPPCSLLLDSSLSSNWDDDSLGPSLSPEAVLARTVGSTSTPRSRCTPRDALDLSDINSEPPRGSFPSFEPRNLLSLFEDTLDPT

# Sample 1
# Target: Fragile X messenger ribonucleoprotein 1, C-terminal low-complexity region (Fmr1, Mus musculus, UniProt P35922)
# Technique: RNA Bind-n-Seq
# Molecule type: RNA
# Medium: in vitro
# Concentration: 200 nM
# Notes: whole 134-nt RNA, ends assumed
# Together with: 150 mM KCl
# Baseline: input library
# Reading: higher = stronger binding
# All sequences stand within: GGGAGUUCUACAGUCCGACGAUC … UGGAAUUCUCGGGUGUCAAGG
Sequence,log2 enrichment
UCAAGUCCUGUGCUACACAUCGUAUGUACCGAAUCGGCCCGGGCCCGGCCCGGGGAAAGUAUUAUGUUACGCCGUUCGGAUCUGCACUUC,-0.899
UCCUCAAGUCCUGUGCUACACAUCGUAUGUACCGAAUCGGGUGGUGGGUGGGAAAGUAUUAUGUUACGCCGUUCGGAUCUGCACUUCCAG,1.37
AGUCCUGUGCUACACAUCGUAUGUACCGAAUCGGUUUUUGGGGUUUUUGGUUUUUGGAAAGUAUUAUGUUACGCCGUUCGGAUCUGCACU,-0.37
CUCAAGUCCUGUGCUACACAUCGUAUGUACCGAAUCGGGGUGGGGUGGGGUGGGAAAGUAUUAUGUUACGCCGUUCGGAUCUGCACUUCC,0.966
AGUCCUGUGCUACACAUCGUAUGUACCGAAUCAAAUUUAAACCCCCCCAAAUUUAAAAAAGUAUUAUGUUACGCCGUUCGGAUCUGCACU,0.134
AAGUCCUGUGCUACACAUCGUAUGUACCGAAUCGGUUUGGUUUUUUUGGUUUUUGGAAAGUAUUAUGUUACGCCGUUCGGAUCUGCACUU,-0.713
CACAGACAACACACACCCACACAGACACAGAGGGAAGGGGUUGGGAUGGGGACAGGGUGCACAGCAGGGCGGGGUAGGACCCCAGCCCCU,1.13
GUCCUGUGCUACACAUCGUAUGUACCGAAUCGGGUUUUUUUGGGAAAGGGUUUUUGGGAAAGUAUUAUGUUACGCCGUUCGGAUCUGCAC,-0.204

# Sample 2
# Target: PABPC1L2, full length, GST fusion (mouse, UniProt A0ABA7IW68)
# Technique: RNAcompete
# Molecule type: RNA
# Medium: in vitro
# Concentration: 20 nM
# Notes: 7-mer, probes averaged, single round
# Baseline: mean of 7-mers
# Reading: higher = stronger binding
# Target sequence (chain): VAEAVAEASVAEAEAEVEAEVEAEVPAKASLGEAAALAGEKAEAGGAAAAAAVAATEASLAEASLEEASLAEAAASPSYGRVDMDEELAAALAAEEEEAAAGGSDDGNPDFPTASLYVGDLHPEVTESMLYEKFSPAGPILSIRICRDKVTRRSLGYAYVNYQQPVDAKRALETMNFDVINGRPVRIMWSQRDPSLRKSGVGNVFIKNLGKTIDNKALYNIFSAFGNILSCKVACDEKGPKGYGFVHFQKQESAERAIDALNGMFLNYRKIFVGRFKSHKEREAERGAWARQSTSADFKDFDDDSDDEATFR
Sequence,7-mer Z-score
GAACUGG,0.0968
CCGGUGU,-0.226
UACUUGG,0.0841
CCGAGGC,-0.153
CCGUCUC,-0.394
GGCUGAG,0.43
GGCCCGU,-0.128
UAGGAGG,0.215

# Sample 3
# Structure (SMILES): Cc1nc(N2CC[C@@H](O)C2)ncc1-c1cc(C(F)(F)F)cc2[nH]ncc12
# Technique: competition with immobilised ligand
# Concentration: 1 µM
target,test,remaining binding
"MAPK9 (Homo sapiens, UniProt P45984)",binding,61%
"KDR (Homo sapiens, UniProt P35968)",cell-free assay,53%
"CAMK2G (Homo sapiens, UniProt Q13555)",binding,100%
"RIOK1 (Homo sapiens, UniProt Q9BRS2)",binding,100%
"CAMK2B (Homo sapiens, UniProt Q13554)",cell-free assay,100%
"EGFR (Homo sapiens, UniProt P00533, L858R/T790M)",cell-free assay,73%
"SRPK3 (Homo sapiens, UniProt Q9UPE1)",binding,84%
"NIM1K (Homo sapiens, UniProt Q8IY84)",binding,71%
"DDR2 (Homo sapiens, UniProt Q16832)",cell-free assay,75%
"STK11 (Homo sapiens, UniProt Q15831)",binding,100%
"PKMYT1 (Homo sapiens, UniProt Q99640)",binding,100%
"EGFR (Homo sapiens, UniProt P00533, del747-752/P753S)",cell-free assay,83%
"LIM domain kinase 1 (LIMK1, Homo sapiens, UniProt P53667)",binding,85%
"PDGFRB (Homo sapiens, UniProt P09619)",cell-free assay,58%

# Further values, each from its own experiment
Compound,target or system,test,test system,setting,how to read,endpoint,result
C[C@@H]1CCC[C@H](C)N1NC(=O)c1ccc(Cl)c(S(N)(=O)=O)c1,mouse MPNST tumor cells,"high-content nuclear imaging, item: cell number",,"10 µM, 12 h, mean of 2 replicates","baseline: plate mean, higher = more cells",nuclei count,0.225 z-score
O=c1[nH]ccc2c(Cc3nnc4ccc(-c5cccc6c5oc5ccccc56)nn34)cccc12,,,"human, microsomes or S9","2 µM, 0.5 h",,remaining compound,43.6%
CC(C)n1cnc(-c2ccc(F)cc2)c1-c1ncc(C(=O)Nc2ccc(N3CCN(C)CC3)cc2)[nH]1,,phase 2a trial,idiopathic pulmonary fibrosis patients,"60 mg once daily, grade 2",,patients with increased interferon-gamma,0%
Cc1ccc(NC(=O)c2ccnc(C(F)(F)F)c2)cc1-c1cc(OCCO)nc(N2CCOCC2)c1,"MAK (Homo sapiens, UniProt P20794)",competitive binding panel,,1 µM,baseline: vehicle,remaining binding,90%

# Repeated from above (sample 3):
target,test,remaining binding
"PKMYT1 (Homo sapiens, UniProt Q99640)",binding,100%
"EGFR (Homo sapiens, UniProt P00533, del747-752/P753S)",cell-free assay,83%
"LIM domain kinase 1 (LIMK1, Homo sapiens, UniProt P53667)",binding,85%
"PDGFRB (Homo sapiens, UniProt P09619)",cell-free assay,58%
